Experimental data collected from several papers.
Lines come from different studies, so protocols differ.
UniProt O95747, sequence (whole entry, looked up): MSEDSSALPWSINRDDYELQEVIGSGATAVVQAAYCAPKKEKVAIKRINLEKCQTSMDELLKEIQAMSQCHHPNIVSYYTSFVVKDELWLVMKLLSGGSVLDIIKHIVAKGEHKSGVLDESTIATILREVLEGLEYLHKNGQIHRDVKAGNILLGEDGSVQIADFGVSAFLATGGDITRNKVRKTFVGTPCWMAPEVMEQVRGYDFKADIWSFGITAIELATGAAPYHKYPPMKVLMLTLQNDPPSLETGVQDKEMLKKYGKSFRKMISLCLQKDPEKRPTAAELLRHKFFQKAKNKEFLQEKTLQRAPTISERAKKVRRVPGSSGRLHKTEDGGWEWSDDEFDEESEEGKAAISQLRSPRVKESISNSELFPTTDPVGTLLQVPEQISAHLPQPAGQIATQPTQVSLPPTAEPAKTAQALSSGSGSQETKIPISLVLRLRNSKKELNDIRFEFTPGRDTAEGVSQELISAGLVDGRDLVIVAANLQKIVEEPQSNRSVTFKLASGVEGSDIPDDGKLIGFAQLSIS
UniProt Q92630, sequence (whole entry, looked up): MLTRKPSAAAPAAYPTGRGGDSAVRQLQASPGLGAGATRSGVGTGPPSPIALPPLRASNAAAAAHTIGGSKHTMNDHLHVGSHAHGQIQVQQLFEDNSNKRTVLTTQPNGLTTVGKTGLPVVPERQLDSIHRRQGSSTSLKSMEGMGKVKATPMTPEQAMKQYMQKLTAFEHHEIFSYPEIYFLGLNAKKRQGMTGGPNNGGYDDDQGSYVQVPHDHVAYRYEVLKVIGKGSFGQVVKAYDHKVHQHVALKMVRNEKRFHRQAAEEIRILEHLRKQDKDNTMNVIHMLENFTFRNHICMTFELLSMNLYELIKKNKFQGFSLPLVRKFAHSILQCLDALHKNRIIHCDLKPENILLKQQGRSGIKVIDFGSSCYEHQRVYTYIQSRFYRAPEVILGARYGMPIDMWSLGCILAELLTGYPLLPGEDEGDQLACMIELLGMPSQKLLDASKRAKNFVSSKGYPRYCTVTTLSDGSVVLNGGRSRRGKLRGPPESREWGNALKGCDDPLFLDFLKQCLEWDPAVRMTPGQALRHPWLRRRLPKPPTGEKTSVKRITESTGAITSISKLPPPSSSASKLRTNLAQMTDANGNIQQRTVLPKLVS

CCC[C@@](N)(CO)CCc1ccc(OCCCCCC(C)C)cc1
bioavailability (rat, plasma; oral, 10 mg/kg): 24%

CC(=O)c1c([O-])cc(C)oc1=O.[Na+]
Cmax (rat, serum; oral, 200 mg/kg): 245000 ng/mL

N=C(N)NCCC[C@@H](NC(=O)[C@@H](N)Cc1ccccc1)C(=O)N[C@@H](Cc1ccccc1)C(=O)N[C@@H](CCCCN)C(N)=O
AUC(0-t) (human, plasma; subcutaneous, 5 mg, multiple doses, once daily, patients): 817 ng·h/mL

Cc1nonc1Cn1nnc2c(N3CC[C@H](O)C3)nc(C(C)(C)C)nc21
hepatocyte CLint (metabolic stability; mouse, hepatocytes): 167 µL/min/10⁶ cells

CC(C)C[C@H](NC(=O)[C@H](Cc1ccccc1)NC(=O)[C@H](Cc1ccccc1)NC(=O)Cc1ccc(-c2ccccc2)cc1)C(=O)N[C@@H](CCCCN)C(=O)N[C@@H](CCCNC(=N)N)C(=O)N[C@H](C(=O)N[C@@H](Cc1c[nH]c2ccccc12)C(=O)N[C@@H](CCCCN)C(=O)N[C@@H](CCCNC(=N)N)C(=O)O)C(C)C
compound remaining (metabolic stability, mass spectrometry; human, liver microsomes; 5 min): 59.7%

C=C(C)[C@@H]1CC[C@]2(NCCN3CCS(=O)(=O)CC3)CC[C@]3(C)[C@H](CC[C@@H]4[C@@]5(C)CC=C(C6=CC[C@@](COc7ncccc7C#N)(C(=O)O)CC6)C(C)(C)[C@@H]5CC[C@]43C)[C@@H]12
AUC(0-t) (human, plasma; oral, 100 mg, fed, tablet): 8650 ng·h/mL

CCCn1c(O)nnc1SCC(=O)Nc1cc(C(F)(F)F)ccc1Cl
IC50 (Dihydroorotate dehydrogenase (quinone), mitochondrial (PFF0160c, Plasmodium falciparum, UniProt Q08210, E182D); enzyme activity, inhibitor, absorbance): 545 nM

CC(C)(N)CNC(=O)O[C@@H]1CCC[C@]2(C1)OOC1(O2)C2CC3CC(C2)CC1C3 (stereo partly shown)
AUC(0-t) (male CD-1 mouse, plasma; intravenous, 3 mg/kg): 458 ng·h/mL

CC[C@H](C)CCCCC(=O)N[C@@H](CCN)C(=O)N[C@H](C(=O)N[C@@H](CCN)C(=O)N[C@H]1CCNC(=O)[C@H]([C@@H](C)O)NC(=O)[C@H](CCN)NC(=O)[C@H](CCN)NC(=O)[C@H](CC(C)C)NC(=O)[C@@H](CC(C)C)NC(=O)[C@H](CCN)NC1=O)[C@@H](C)O
AUC(0-t) (male Sprague-Dawley rat, plasma; intravenous, 5 mg/kg): 12500 ng·h/mL

CC(=O)c1c(C)c2cnc(Nc3ccc(C4CCN(CCS(C)(=O)=O)CC4)cn3)nc2n(C2CCCC2)c1=O
AUC(0-t) (female beagle dog, plasma; oral, 6 mg/kg, multiple doses, once daily): 618 ng·h/mL

[18FH]
tracer uptake (mouse, stomach; intravenous, 1 h): 0.09 %ID/g

CC1(CC(F)(F)F)NC(=O)N(c2ccc(F)c(C(F)(F)F)c2)C1=O (stereo not shown)
chromatographic logD (HPLC; pH 7.4): 3.4

Nc1ncc(-c2nc(N3CCOCC3)nc(N3CCOCC3)n2)c(C(F)F)n1
remaining binding (Tyrosine-protein kinase ABL1, phosphorylated (ABL1, Homo sapiens, UniProt P00519, H396P); binding, competition with immobilised ligand; 10 µM): 60%

Cl.Cn1c(=O)n(CCCCN2CCC3(CC2)OCc2ccccc23)c2ccccc21
half-life (male Sprague-Dawley rat, brain; intravenous, 10 mg/kg): 324 min

CCN(CC)CCCC[C@H](NC(=O)[C@H](CC(C)C)NC(=O)[C@H](C)NC(=O)[C@H](Cc1ccccc1)NC(=O)c1ccc(C(C)(C)C)cc1)C(=O)N[C@@H](CO)C(=O)OC
AUC(0-t) (male Swiss mouse, blood; intraperitoneal, 10 mg/kg): 1550 ng·h/mL

Cc1nn(C)cc1-c1nc2c(N3CCN(Cc4ccc(Cl)cc4)CC3)c(Cl)cnc2[nH]1
remaining binding (Serine/threonine-protein kinase OSR1 (OXSR1, Homo sapiens, UniProt O95747); binding, competition with immobilised ligand; 1 µM): 66%

COC(=O)c1cc(-c2cccc(NC(=S)Nc3ccc(F)cc3)c2)on1
MIC (Klebsiella pneumoniae; microbial growth, broth dilution; BAA1705): > 64 µg/mL

N=c1c2c(-c3ccccc3)c(-c3ccccc3)n(Cc3ccccc3)c2ncn1[C@H]1CC[C@H](O)CC1
AUC(0-t) (male beagle dog, plasma; intravenous, 0.5 mg/kg, single dose): 4400 ng·h/mL

C/C=C1/CN2CC[C@]34C(=Nc5ccccc53)[C@@H]2C[C@@H]1C4(COC(C)=O)C(=O)OC (stereo partly shown)
Papp B→A (Caco-2; pH 7.4): 37.7 ×10⁻⁶ cm/s

O=C(Nc1cccnn1)N1CCN([C@@H]2CCOc3cc(C(F)(F)F)ccc32)CC1
concentration (male Sprague-Dawley rat, brain; oral, 1 mg/kg, 1 h): 664 ng/g

CC[C@H](C)[C@H](N)C(=O)N[C@@H](CC(C)C)C(=O)NCC(=O)N[C@H](CCCNC(=N)N)C(=O)N[C@H](C(=O)N[C@@H](Cc1c[nH]c2ccccc12)C(=O)N[C@@H](CCCCN)C(=O)NCC(=O)N[C@H](C(=O)N[C@@H](CCCCN)C(=O)N[C@@H](CC(=O)O)C(=O)N[C@H](C(=O)N[C@@H](CC(C)C)C(N)=O)[C@@H](C)CC)[C@@H](C)CC)[C@@H](C)CC
compound remaining (chemical stability, HPLC; human, serum; 1 mg/mL, 2 h): ~60%

CN1CCN(S(=O)(=O)c2cc([N+](=O)[O-])ccc2N(CCOS(C)(=O)=O)CCOS(C)(=O)=O)CC1
MRT(0-inf) (female SCID mouse, plasma; intraperitoneal, 5 mg/kg): 19.2 min

[2H]c1c([2H])c([C@]2([2H])CCCN2C(=O)C(C)(C)Oc2ccc3cn[nH]c3c2)c([2H])c([2H])c1C([2H])([2H])[2H]
remaining binding (Dual specificity tyrosine-phosphorylation-regulated kinase 2 (DYRK2, Homo sapiens, UniProt Q92630); binding, competition with immobilised ligand; 1 µM): 93%

CN(C)C1(CNC(=O)c2ccc3c(c2)CCN3C(=O)c2ccccc2)CCOCC1
concentration (male C57BL/6 mouse, brain; intraperitoneal, 50 mg/kg, 30 min): 550 ng/g

CC(C)CC(=O)OC[C@H]1O[C@@](C#N)(c2ccc3c(N)ncnn23)[C@H](O)[C@@H]1O
half-life (metabolic stability; monkey, hepatocytes; 5 µM): < 4.36 min

CN1C(=O)Cc2ccc(F)c(CCNC[C@H]3CN(c4ccc5c(n4)NC(=O)CO5)C(=O)O3)c21
hepatocyte CLint (metabolic stability; human, hepatocytes; 0.5 µM): 9 µL/min/10⁶ cells

COc1ccc(C[C@@H](C)[C@@H](C)Cc2ccc(OC)c(OC)c2)cc1OC
NOAEL (general toxicity; female beagle dog; oral, multiple doses): 1000 mg/kg/day

Cc1cc(C)nc(Nc2ncc(C(=O)NCCc3c(C)[nH]c4ccccc34)cn2)c1
Cmax (C57BL/6 mouse, plasma; intraperitoneal, 8.8 mg/kg): 1320 ng/mL

O=c1cc(NCCCNCc2scc(I)c2I)[nH]c2ccccc12
IC50 (Dihydroorotate dehydrogenase (quinone), mitochondrial (PFF0160c, Plasmodium falciparum, UniProt Q08210); enzyme activity, inhibitor, absorbance): 892 nM

OC[C@@H](O)[C@@H](O)[C@H](O)[C@H](O)CO
Papp B→A (Caco-2): 0.203 ×10⁻⁶ cm/s

Cc1[nH]c(C)c(S(=O)(=O)Nc2ccc(S(F)(F)(F)(F)F)cc2)c1C(=O)N1CCC(F)(F)C1
Cmax (mouse, brain; intraperitoneal, 40 mg/kg): 3.5 µM

CC(C)(C)[C@H](NC(=O)[C@H](CCONC(=N)N)NC(=O)Cc1ccc(CNC(=N)N)cc1)C(=O)N[C@@H](CCONC(=N)N)C(=O)NCc1ccc(C(=N)N)cc1
AUC(0-inf) (male Sprague-Dawley rat, plasma; intravenous, 1 mg/kg): 2290 ng·h/mL

Nc1nc(-c2ccccc2)nc2[nH]nc(Nc3ccc(C(F)(F)F)cc3)c12
concentration (mouse, plasma; oral, 100 mg/kg, 7 h): 614 ng/mL

C[C@H]1O[C@@H](O[C@H]2[C@@H](O)C[C@H](O[C@H]3[C@@H](O)C[C@H](O[C@H]4CC[C@@]5(C)[C@H](CC[C@@H]6[C@@H]5C[C@@H](O)[C@]5(C)[C@@H](C7=CC(=O)OC7)CC[C@]65O)C4)O[C@@H]3C)O[C@@H]2C)C[C@H](O)[C@@H]1O
Papp A→B (Caco-2; 10 µM, 2 h, pH 7.4): 3 ×10⁻⁶ cm/s

CC1(C)NC(=O)N(c2ccc(F)c(C(F)(F)F)c2F)C1=O
microsomal CLint (metabolic stability; mouse, liver microsomes): 9 µL/min/mg

C/C=C1/CN2CC[C@]34C(=C(C(=O)OC)[C@H]1C[C@H]23)Nc1ccccc14
Papp B→A (Caco-2; 10 µM, 2 h, pH 7.4): 39.1 ×10⁻⁶ cm/s

CC[C@H](C)[C@H](NC(=O)[C@H](CC(C)C)NC(=O)[C@@H](NC(=O)[C@H](CCCCN)NC(=O)[C@H](CCCNC(=N)N)NC(=O)[C@H](CCCCN)NC(=O)[C@H](CC(C)C)NC(=O)[C@H](Cc1ccc(O)cc1)NC(=O)[C@@H](NC(=O)[C@@H](NC(=O)[C@H](Cc1ccccc1)NC(=O)CN)C(C)C)C(C)C)[C@@H](C)O)C(=O)N[C@@H](CCCNC(=N)N)C(=O)N[C@@H](CC(C)C)C(=O)N[C@@H](CC(C)C)C(=O)N[C@@H](Cc1ccccc1)C(=O)N[C@H](C(=O)N[C@@H](CC(N)=O)C(=O)N[C@@H](CCCCN)C(=O)N[C@@H](CCCCN)C(=O)N[C@H](C(=O)N[C@H](C(=O)N[C@H](C(=O)N[C@@H](CCC(=O)O)C(=O)N[C@@H](CCCCN)C(=O)N[C@@H](CC(C)C)C(=O)N[C@@H](CCCNC(=N)N)C(=O)N[C@@H](CS)C(=O)N[C@H](C(=O)N[C@@H](CCCNC(=N)N)C(=O)N1CCC[C@H]1C(=O)N[C@@H](CO)C(=O)N[C@@H](CCCNC(=N)N)C(=O)N1CCC[C@H]1C(=O)N1CCC[C@H]1C(=O)N[C@@H](CCCNC(=N)N)C(=O)NCC(=O)N[C@@H](Cc1ccccc1)C(=O)O)C(C)C)[C@@H](C)CC)[C@@H](C)O)[C@@H](C)O)[C@@H](C)O
compound remaining (chemical stability; male human, serum; 2 mg/mL, 30 min): 11%

A few entries again:
CC(=O)c1c([O-])cc(C)oc1=O.[Na+]
Cmax (rat, serum; oral, 200 mg/kg): 245000 ng/mL

C/C=C1/CN2CC[C@]34C(=Nc5ccccc53)[C@@H]2C[C@@H]1C4(COC(C)=O)C(=O)OC (stereo partly shown)
Papp B→A (Caco-2; pH 7.4): 37.7 ×10⁻⁶ cm/s

CC(=O)c1c(C)c2cnc(Nc3ccc(C4CCN(CCS(C)(=O)=O)CC4)cn3)nc2n(C2CCCC2)c1=O
AUC(0-t) (female beagle dog, plasma; oral, 6 mg/kg, multiple doses, once daily): 618 ng·h/mL

COC(=O)c1cc(-c2cccc(NC(=S)Nc3ccc(F)cc3)c2)on1
MIC (Klebsiella pneumoniae; microbial growth, broth dilution; BAA1705): > 64 µg/mL

CC(C)(C)[C@H](NC(=O)[C@H](CCONC(=N)N)NC(=O)Cc1ccc(CNC(=N)N)cc1)C(=O)N[C@@H](CCONC(=N)N)C(=O)NCc1ccc(C(=N)N)cc1
AUC(0-inf) (male Sprague-Dawley rat, plasma; intravenous, 1 mg/kg): 2290 ng·h/mL
